# Experimental data of several laboratories.
# Each numbered part is a random draw from the data of one study; scales do not carry over between parts. Values joined by “and” are separate records of one study, mostly repeats; a detail may differ.

# Study 1
# Organism: Sarcocystis neurona
# Effect on: parasite growth
# Tested at: 10 µM
# Time: 96 h
# Setting: first screen
# Reference: untreated
SMILES,log2 fold change
COc1cccc2c1C(=O)c1c(O)c3c(c(O)c1C2=O)C[C@@](O)(C(=O)CO)C[C@@H]3O[C@H]1C[C@H](N)[C@H](O)[C@H](C)O1,-1.58
CC(=O)O[C@@]12CO[C@@H]1C[C@H](O)[C@@]1(C)C(=O)[C@H](O)C3=C(C)[C@@H](OC(=O)[C@H](O)[C@@H](NC(=O)OC(C)(C)C)c4ccccc4)C[C@@](O)([C@@H](OC(=O)c4ccccc4)[C@H]21)C3(C)C,-1.14
[H]/N=C(/NCCCCC)N/N=C/c1c[nH]c2ccc(OC)cc12,-5.98
CCN1CCCC1CNC(=O)c1cc(S(=O)(=O)CC)c(N)cc1OC (stereo not drawn),-0.0427
CC(=O)NC[C@H]1CN(c2ccc(N3CCOCC3)c(F)c2)C(=O)O1,0.00827
CC1=C(/C=C/C(C)=C/C=C/C(C)=C/C(=O)O)C(C)(C)CCC1,0.43
CO[C@@]1(NC(=O)Cc2cccs2)C(=O)N2C(C(=O)O)=C(COC(N)=O)CS[C@@H]21,0.21
Cc1onc(-c2ccccc2)c1-c1ccc(S(N)(=O)=O)cc1,0.13
O=C(O)CCNC(=O)c1ccc(/N=N/c2ccc(O)c(C(=O)O)c2)cc1,0.17
CC(C)(C)NCC(O)c1cc(O)cc(O)c1 (stereo not drawn),0.52

# Study 2
# Target: Ribosomal protein S6 kinase alpha-6 (RPS6KA6, Homo sapiens, UniProt Q9UK32)
# Sequence of UniProt Q9UK32 (whole entry, looked up): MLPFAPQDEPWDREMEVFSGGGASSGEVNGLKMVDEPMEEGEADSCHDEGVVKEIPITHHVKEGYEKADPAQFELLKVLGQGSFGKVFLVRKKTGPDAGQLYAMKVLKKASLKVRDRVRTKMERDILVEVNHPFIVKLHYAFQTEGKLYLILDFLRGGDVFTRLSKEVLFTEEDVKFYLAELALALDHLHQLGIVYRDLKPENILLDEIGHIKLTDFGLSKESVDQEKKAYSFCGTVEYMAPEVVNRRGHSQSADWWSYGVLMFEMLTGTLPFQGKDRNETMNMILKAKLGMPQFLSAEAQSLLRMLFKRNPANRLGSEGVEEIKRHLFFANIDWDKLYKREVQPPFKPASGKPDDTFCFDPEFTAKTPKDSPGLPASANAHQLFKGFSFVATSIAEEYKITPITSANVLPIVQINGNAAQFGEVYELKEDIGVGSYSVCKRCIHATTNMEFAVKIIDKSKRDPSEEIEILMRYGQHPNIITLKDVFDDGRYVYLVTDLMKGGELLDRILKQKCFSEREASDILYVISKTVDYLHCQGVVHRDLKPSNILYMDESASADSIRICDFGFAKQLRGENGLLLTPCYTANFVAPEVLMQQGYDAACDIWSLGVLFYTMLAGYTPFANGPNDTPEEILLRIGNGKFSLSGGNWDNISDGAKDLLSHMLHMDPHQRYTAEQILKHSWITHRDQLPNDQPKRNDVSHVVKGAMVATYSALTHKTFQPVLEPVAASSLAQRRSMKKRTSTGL
# Effect on: enzyme activity
# Mode: inhibitor
# Tested at: 0.5 µM
# Reference: control
Structure (SMILES),remaining activity [%]
Cn1sc(=O)n(Cc2ccccc2)c1=O,104
CC(C)[C@H](CO)Nc1nc(Nc2cc(N)cc(Cl)c2)c2ncn(C(C)C)c2n1,46.1
CO[C@H]1C[C@@H]2CC[C@@H](C)[C@@](O)(O2)C(=O)C(=O)N2CCCC[C@H]2C(=O)O[C@H]([C@H](C)C[C@@H]2CC[C@@H](O)[C@H](OC)C2)CC(=O)[C@H](C)/C=C(\C)[C@@H](O)[C@@H](OC)C(=O)[C@H](C)C[C@H](C)/C=C/C=C/C=C/1C,118
O=C(O)c1ccc2c3c1cccc3c(=O)n1c3ccccc3nc21,101
Nc1[nH]nc2nc3ccccc3nc12,94.2
O=C(Nc1cccc(Nc2cc(Nc3cccc(C(F)(F)F)c3)ncn2)c1)C1CC1,96.6
CNC(=O)c1cc(Oc2ccc(NC(=O)Nc3ccc(Cl)c(C(F)(F)F)c3)cc2)ccn1,97.3
COc1cc2ncnc(Nc3ccc(F)c(Cl)c3)c2cc1OCCCN1CCOCC1,95.2
O=C1NC(=O)C(c2cn(CCCO)c3ncccc23)=C1c1cnccn1,73
COc1ccc(C(=O)Nc2sc3c(c2C(N)=O)CCCC3)cc1OC,98.5
Cn1c2ccccc2c2c3c(c4c5ccccc5n(CCC#N)c4c21)CNC3=O,4.2
Cc1nc(-c2ccccc2)c(-c2ccncc2)o1,115
Cc1ccc(NC(=O)c2ccc(CN3CCN(C)CC3)cc2)cc1Nc1nc(-c2cccnc2)cs1,103
Nc1ccc2ncnc(NCCc3ccc(Oc4ccccc4)cc3)c2c1,103

# Study 3
# Cell line: mouse MPNST tumor cells
# Technique: high-content nuclear imaging
# Refers to: cell number
# Tested at: 10 µM
# Time: 12 h
# Setting: mean of 2 replicates
# Reference: plate mean
# Reading: higher = more cells
SMILES,nuclei count
CC(C)(Oc1ccc(Cl)cc1)C(=O)O,2.04 z-score and 1.57 z-score
O=S(=O)(c1cccc2c(Cl)cccc12)N1CCCNCC1,-3.36 z-score
O=c1cc(-c2ccc(O)c(O)c2)oc2cc(O)cc(O)c12,1.98 z-score
C[C@@H]1CN(c2c(F)c(N)c3c(=O)c(C(=O)O)cn(C4CC4)c3c2F)C[C@H](C)N1,0.803 z-score
c1ccc(N2CCN(CCCOc3ccc4c(c3)OCO4)CC2)cc1,-0.817 z-score
O=C(O)c1ccc(C(=O)N[C@@H](c2ccc(OC(F)(F)F)c(F)c2)c2ncccc2F)nc1,0.0267 z-score
Cc1cnc(-c2cc(N3CCN(C(=O)CCS(C)(=O)=O)CC3)ncc2Cl)c(C)c1,0.546 z-score
CC(C)(CN)c1nc(-c2ccc(Cl)c(O)c2)c(-c2ccncc2)[nH]1,-0.907 z-score
CC1(C)C(=O)C(C)(C)c2cc(C(=O)Nc3ccc(C(=O)O)cc3)ccc21,-0.284 z-score

# Study 4
# SMILES: CC(C)(C(=O)O)[C@H](NC(=O)Cc1cccc(I)c1)c1ccc2oc(=O)[nH]c2c1
# Technique: Incucyte 3D growth
# Tested at: 30 µM
# Reading: higher = more growth
cell line,setting,spheroid area
NCI-H358,168 h,9.17e+06 a.u. and 5.98e+06 a.u. and 6.26e+06 a.u. and 7.06e+06 a.u. and 6.53e+06 a.u. and 7.78e+06 a.u.
PC-9,72 h,5.38e+08 a.u. and 5.65e+08 a.u. and 5.29e+08 a.u. and 5.6e+08 a.u. and 5.61e+08 a.u.
IPC-298,24 h,2.34e+07 a.u. and 2.28e+07 a.u. and 1.8e+07 a.u. and 1.87e+07 a.u. and 2.01e+07 a.u. and 2.17e+07 a.u.
KP-4,90 h,1.87e+07 a.u. and 1.69e+07 a.u. and 1.52e+07 a.u. and 1.56e+07 a.u. and 1.71e+07 a.u. and 1.59e+07 a.u.
IPC-298,144 h,2.56e+07 a.u. and 3.41e+07 a.u. and 2.9e+07 a.u. and 2.3e+07 a.u. and 3.37e+07 a.u. and 2.82e+07 a.u.
MEL-JUSO,246.52 h,1.89e+07 a.u. and 2.25e+07 a.u. and 2.07e+07 a.u. and 1.54e+07 a.u. and 1.72e+07 a.u. and 3.47e+07 a.u.
KP-4,138 h,2.02e+07 a.u. and 2.07e+07 a.u. and 2.12e+07 a.u. and 1.93e+07 a.u. and 1.61e+07 a.u.
A375,198 h,1.2e+08 a.u. and 1.38e+08 a.u. and 1.19e+08 a.u. and 1.15e+08 a.u. and 1.02e+08 a.u.
A375,498.52 h,1.55e+08 a.u. and 1.45e+08 a.u. and 1.41e+08 a.u. and 1.56e+08 a.u. and 1.43e+08 a.u. and 1.77e+08 a.u.

# For quick reference, copied from above (study 2):
Structure (SMILES),remaining activity [%]
Cn1c2ccccc2c2c3c(c4c5ccccc5n(CCC#N)c4c21)CNC3=O,4.2
Cc1ccc(NC(=O)c2ccc(CN3CCN(C)CC3)cc2)cc1Nc1nc(-c2cccnc2)cs1,103
O=C1NC(=O)C(c2cn(CCCO)c3ncccc23)=C1c1cnccn1,73
Nc1[nH]nc2nc3ccccc3nc12,94.2
Nc1ccc2ncnc(NCCc3ccc(Oc4ccccc4)cc3)c2c1,103
COc1cc2ncnc(Nc3ccc(F)c(Cl)c3)c2cc1OCCCN1CCOCC1,95.2
CO[C@H]1C[C@@H]2CC[C@@H](C)[C@@](O)(O2)C(=O)C(=O)N2CCCC[C@H]2C(=O)O[C@H]([C@H](C)C[C@@H]2CC[C@@H](O)[C@H](OC)C2)CC(=O)[C@H](C)/C=C(\C)[C@@H](O)[C@@H](OC)C(=O)[C@H](C)C[C@H](C)/C=C/C=C/C=C/1C,118
